Experimental data of several laboratories.
A part holds a random share of what one study measured.

Set 1
Target: TAR DNA-binding protein 43, full length, His tag (TARDBP, Homo sapiens, UniProt Q13148, residues 1-414)
Method: RNA Bind-n-Seq
Molecule type: RNA
Sample: in vitro
Concentration: 20 nM
Setting: 6-mer, flanks averaged, single round
With: 150 mM KCl
Reference: input library
Direction: higher = stronger binding
Oligonucleotide	6-mer enrichment (R)
UUCUGC	0.592
AAAACA	0.642
GGAAGA	1.74

Set 2
Target: RING finger protein unkempt homolog, zinc fingers 1-6, GST-SBP tag (UNK, Homo sapiens, UniProt Q9C0B0, residues 30-357)
Sequence of UniProt Q9C0B0 (30-357, looked up): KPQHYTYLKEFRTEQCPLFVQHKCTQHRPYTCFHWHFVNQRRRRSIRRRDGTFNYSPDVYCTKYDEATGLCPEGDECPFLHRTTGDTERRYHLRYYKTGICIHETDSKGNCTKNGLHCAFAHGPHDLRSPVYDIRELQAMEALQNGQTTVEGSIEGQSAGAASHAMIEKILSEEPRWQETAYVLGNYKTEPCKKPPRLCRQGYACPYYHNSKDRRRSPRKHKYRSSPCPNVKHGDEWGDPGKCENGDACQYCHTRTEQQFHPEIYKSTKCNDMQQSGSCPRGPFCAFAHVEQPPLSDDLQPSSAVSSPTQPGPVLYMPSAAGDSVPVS
Method: RNA Bind-n-Seq
Molecule type: RNA
Sample: in vitro
Concentration: not given
Setting: RNA with constant flanks, human-mouse chimeric sites, ends assumed
Reference: input RNA pool
Direction: higher = stronger binding
Oligonucleotide	bound/input enrichment [ratio]
GGGAGUUCUACAGUCCGACGAUCUACAUUUUAUUGUUGAGUUUCAUUUUCAUAUAUUCUUGUAGUGUCUGCUUGCCUGUGACUUCUGGUAAAAUAAGACUAGCCUUUGAAAAUAUUUUAGCAUGGUAUUUAACAUUUUCUAAACAACAGAGGAUUGAGCAUCA	9.33
GGGAGUUCUACAGUCCGACGAUCGACUUUGGGACUGGUCCUCGCAACGCAGCCUUCUAUAGCCCUCAUGGACAUAUAUUAGUAUUAGCUGGAUUUGGAAAUCUUCGAGGACAAAUGGAAGUGUGGGAUGUUAAAAACUACAAGCAACAGAGGAUUGAGCAUCA	0.674
GGGAGUUCUACAGUCCGACGAUCUUUCUACUGCAGCAAACGAUGCUAAGAAUUAAGGAUCCUAAGAAGUCACUGGAUUUUUAUACGAGGGUUCUUGGACUGACCCUCCUGCAAAAAUGUGACUUCCCUGCUAUGAAGUUCUCGCAACAGAGGAUUGAGCAUCA	0.152

Set 3
Target: Protein C-ets-1 (ETS1, Homo sapiens, UniProt P14921, residues 1-441, full length assumed)
Method: protein-binding microarray
Molecule type: double-stranded DNA, one strand shown
Sample: in vitro
Concentration: not given
Setting: k-mer, scored over probes, only values ≥0.25
Direction: higher = stronger binding
Construct (chain): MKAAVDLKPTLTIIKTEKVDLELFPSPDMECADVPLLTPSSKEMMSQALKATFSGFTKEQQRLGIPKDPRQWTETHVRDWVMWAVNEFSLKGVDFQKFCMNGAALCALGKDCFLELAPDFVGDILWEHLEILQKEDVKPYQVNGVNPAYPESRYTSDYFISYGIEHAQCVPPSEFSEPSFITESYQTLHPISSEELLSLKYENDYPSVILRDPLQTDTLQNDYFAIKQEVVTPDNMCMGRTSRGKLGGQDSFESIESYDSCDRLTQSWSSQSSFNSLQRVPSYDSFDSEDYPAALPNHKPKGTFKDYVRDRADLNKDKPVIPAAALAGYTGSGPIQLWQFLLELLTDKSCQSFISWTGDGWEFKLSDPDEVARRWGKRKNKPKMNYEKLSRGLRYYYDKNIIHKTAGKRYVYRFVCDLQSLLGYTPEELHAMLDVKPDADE
Oligonucleotide	E-score
AATCGGAA	0.362
ACCCCGTC	0.252
AAGGAAGT	0.443

Other studies, line by line
Substance	target	test	test system	setting	how to read	quantity	value
PhoQ, residues 284 288 289 292 302 303 ASSHFY	PhoP, residues 12 14 15 18 19 NIMAP (Escherichia coli, UniProt P23836)	Sort-seq, item: YFP reporter	E. coli	PhoQ-PhoP variant library, with: 10 µM Mg2+	reference: high Mg2+ state, higher = stronger signaling	fold induction	0.727

Some of these lines once more (set 3):
Oligonucleotide	E-score
AAGGAAGT	0.443
